{"data": "Results of several laboratories", "note": "Numbered parts are unrelated; each lists some results of a single study."}
{"data": "Set 1", "target": "Interferon regulatory factor 5, full length, phosphomimetic (IRF5, Homo sapiens, UniProt Q13568-2, residues 1-514, S451D/S453D/S456D/S462D)", "method": "protein-binding microarray", "molecule type": "double-stranded DNA, one strand shown", "medium": "in vitro", "tested at": "940 nM top", "notes": "60-bp whole probe", "together with": "salmon DNA 0.4 mg/ml", "relative to": "random background probes", "direction": "higher = stronger binding", "constant ends, left off below": "GCCTAGCAC … GTCTTGATTCGCTTGACGCTGCTG"}
{"Strand": "TGCAACATCTACAATGGCTTTGTGCTA", "fitted relative affinity [z-score]": -0.177}
{"Strand": "TGCTCTCCGGGGTCTGTGAGGGTGCTA", "fitted relative affinity [z-score]": 0.15}
{"Strand": "TCAGTGATCAGTCTGATACTGTGCTAG", "fitted relative affinity [z-score]": -0.266}
{"Strand": "AGAATTTCCACTTTGACTTAGTGCTAG", "fitted relative affinity [z-score]": 0.509}
{"Strand": "TCACCTCTTTCACTGGTACTGTGCTAG", "fitted relative affinity [z-score]": 1.44}
{"Strand": "TTAGATATCAGACTCGATTAGTGCTAG", "fitted relative affinity [z-score]": -0.116}
{"Strand": "GACGGTCTCCCTTTCCTGACGTGCTAG", "fitted relative affinity [z-score]": 0.597}
{"Strand": "TTAGGACTCGGTATCGGTTAGTGCTAG", "fitted relative affinity [z-score]": 3.97}
{"Strand": "TTAGCTCTCGGTTTCGGTTAGTGCTAG", "fitted relative affinity [z-score]": 10.3}
{"Strand": "ACCACTCCAGTTCTGGGAAAGTGCTAG", "fitted relative affinity [z-score]": -0.0224}
{"Strand": "CTCTGTCTGGGATGTAATTCCGTGCTA", "fitted relative affinity [z-score]": 0.242}
{"Strand": "TTAGATACCAGACTGGATTAGTGCTAG", "fitted relative affinity [z-score]": -0.00585}
{"Strand": "TATCAGGGCATCCCCTTGAAGTGCTAG", "fitted relative affinity [z-score]": -0.0465}
{"Strand": "GACGAACTGCTTTTCCTGACGTGCTAG", "fitted relative affinity [z-score]": -0.00276}
{"Strand": "TTAGGTATCGGACTAGGTTAGTGCTAG", "fitted relative affinity [z-score]": 3.82}
{"Strand": "TTAGCTCTCGGTATCGGTTAGTGCTAG", "fitted relative affinity [z-score]": 7.39}
{"Strand": "GACGAACTGAGTTTCGAGAGGTGCTAG", "fitted relative affinity [z-score]": 3.34}
{"data": "Set 2", "target": "Histone acetyltransferase KAT6A, winged helix 1, GST fusion (KAT6A, Homo sapiens, UniProt Q92794, residues 1-85)", "method": "protein binding microarray", "molecule type": "double-stranded DNA, one strand shown", "medium": "in vitro", "tested at": "not given", "notes": "8-mer, flanks averaged, mean of 2 arrays, mostly near background", "relative to": "not given", "direction": "higher = stronger binding", "Construct (chain)": "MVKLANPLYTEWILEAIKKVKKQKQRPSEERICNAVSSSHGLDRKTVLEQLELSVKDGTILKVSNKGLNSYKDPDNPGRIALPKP"}
{"Strand": "AGCTACGA", "E-score": -0.0253}
{"Strand": "CAGTCAAA", "E-score": -0.106}
{"Strand": "GGCCCTTA", "E-score": -0.0363}
{"Strand": "CTATTGGA", "E-score": -0.0479}
{"Strand": "AATTGTGT", "E-score": -0.158}
{"Strand": "CCTACCTC", "E-score": -0.319}
{"Strand": "GAAAGTGC", "E-score": 0.0338}
{"Strand": "CTGTTGGC", "E-score": -0.158}
{"Strand": "AAAAAACG", "E-score": 0.0462}
{"Strand": "AGTTGGAT", "E-score": -0.248}
{"Strand": "AACTAATT", "E-score": -0.0781}
{"Strand": "CCATCTCC", "E-score": -0.232}
{"Strand": "CTAAGTAC", "E-score": 0.0364}
{"Strand": "ACTTGTTG", "E-score": -0.273}
{"Strand": "CGGAGGGC", "E-score": 0.181}
{"Strand": "ACAGTGCG", "E-score": 0.26}
{"Strand": "GAAGACAA", "E-score": -0.173}
{"Strand": "ACGTATCT", "E-score": -0.113}
{"Strand": "CCATTGGA", "E-score": -0.175}
{"Strand": "CGTCTTCC", "E-score": 0.153}
{"Strand": "AATTTTAC", "E-score": -0.0697}
{"Strand": "AAAGACAG", "E-score": -0.0155}
{"Strand": "CCCGGCGG", "E-score": 0.476}
{"Strand": "CCCGGTAA", "E-score": 0.29}
{"Strand": "CCTGAATA", "E-score": -0.0449}
{"data": "Set 3", "target": "Sal-like protein 4, full length isoform B (SALL4, Homo sapiens, UniProt Q9UJQ4-2, residues 1-616)", "method": "universal PBM", "molecule type": "double-stranded DNA, one strand shown", "medium": "in vitro", "tested at": "not given", "notes": "8-mer, flanks averaged, mean of replicates", "direction": "higher = stronger binding", "Target sequence (chain)": "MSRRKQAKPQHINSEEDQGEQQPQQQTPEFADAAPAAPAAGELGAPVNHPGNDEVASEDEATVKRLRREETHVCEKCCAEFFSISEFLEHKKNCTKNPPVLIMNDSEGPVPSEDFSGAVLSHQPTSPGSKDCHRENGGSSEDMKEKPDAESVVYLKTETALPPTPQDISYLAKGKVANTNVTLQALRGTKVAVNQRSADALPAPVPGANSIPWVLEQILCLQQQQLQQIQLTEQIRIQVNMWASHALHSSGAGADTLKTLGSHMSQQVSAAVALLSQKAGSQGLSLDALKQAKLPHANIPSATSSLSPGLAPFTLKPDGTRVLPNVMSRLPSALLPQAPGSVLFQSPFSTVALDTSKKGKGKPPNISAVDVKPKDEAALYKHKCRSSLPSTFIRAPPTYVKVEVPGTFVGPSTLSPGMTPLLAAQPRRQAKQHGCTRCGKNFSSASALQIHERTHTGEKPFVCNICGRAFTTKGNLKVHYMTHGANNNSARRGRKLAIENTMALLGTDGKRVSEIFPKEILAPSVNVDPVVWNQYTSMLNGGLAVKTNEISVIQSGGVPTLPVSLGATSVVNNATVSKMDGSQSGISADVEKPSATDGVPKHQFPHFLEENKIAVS"}
{"Strand": "GCAAAAAA", "E-score": 0.205}
{"Strand": "AAGGCACG", "E-score": -0.118}
{"Strand": "CCAGTAAG", "E-score": -0.0276}
{"Strand": "GACCCCTC", "E-score": -0.244}
{"Strand": "TAACTAAA", "E-score": 0.181}
{"Strand": "AGTAATTG", "E-score": 0.1}
{"Strand": "ATCTTTTG", "E-score": 0.131}
{"Strand": "ACGATGCG", "E-score": -0.0104}
{"Strand": "CGAGCTAA", "E-score": -0.166}
{"Strand": "ACAGTTTA", "E-score": 0.147}
{"Strand": "AGGTAGGG", "E-score": -0.0143}
{"Strand": "CGTCTTCA", "E-score": -0.0457}
{"Strand": "CATGCAGG", "E-score": -0.231}
{"Strand": "AGGCTGAA", "E-score": -0.0732}
{"Strand": "ACAGCCGA", "E-score": -0.0806}
{"Strand": "CATGGCAG", "E-score": -0.0579}
{"Strand": "AACCTGGG", "E-score": -0.36}
{"Strand": "GATATTTA", "E-score": 0.38}
{"Strand": "CTTACGCA", "E-score": 0.0768}
{"data": "Set 4", "target": "Ras GTPase-activating protein-binding protein 1, C-terminal RGG region (G3BP1, Homo sapiens, UniProt Q13283)", "method": "RNA Bind-n-Seq", "molecule type": "RNA", "medium": "in vitro", "tested at": "1 µM", "notes": "whole 134-nt RNA, ends assumed", "together with": "150 mM KCl", "relative to": "input library", "direction": "higher = stronger binding", "constant ends, left off below": "GGGAGUUCUACAGUCCGACGAUC … UGGAAUUCUCGGGUGUCAAGG", "sequence of UniProt Q13283 (whole entry, looked up)": "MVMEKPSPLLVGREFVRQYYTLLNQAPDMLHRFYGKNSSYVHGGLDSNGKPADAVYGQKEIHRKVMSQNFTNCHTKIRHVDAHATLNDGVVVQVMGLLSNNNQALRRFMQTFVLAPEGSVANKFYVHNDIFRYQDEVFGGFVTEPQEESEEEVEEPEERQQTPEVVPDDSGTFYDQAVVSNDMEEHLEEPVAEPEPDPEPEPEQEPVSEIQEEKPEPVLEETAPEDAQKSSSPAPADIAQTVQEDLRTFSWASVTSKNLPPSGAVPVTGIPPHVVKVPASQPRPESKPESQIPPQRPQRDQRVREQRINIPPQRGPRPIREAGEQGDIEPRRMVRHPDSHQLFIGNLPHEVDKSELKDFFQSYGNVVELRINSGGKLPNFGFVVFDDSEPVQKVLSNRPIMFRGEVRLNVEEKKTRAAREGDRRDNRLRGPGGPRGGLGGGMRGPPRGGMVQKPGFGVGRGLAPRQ"}
{"Strand": "UGGCGCUGUCCUGGACUUGAUGGGGGAUGAAGCCCAGAACCUGACGAGGGGCCGGCAGCAGCUCAAGUGGUGAGUGAUCGAGUGAGCCGC", "log2 enrichment": -0.981}
{"Strand": "UCCUGUGCUACACAUCGUAUGUACCGAAUCGGGGAAAAAAGGGAAAAAAGGGAAAAAAGGAAAGUAUUAUGUUACGCCGUUCGGAUCUGC", "log2 enrichment": -1.08}
{"Strand": "CCUCAAGUCCUGUGCUACACAUCGUAUGUACCGAAUCGGGAGGAGGGAGGGGAAAGUAUUAUGUUACGCCGUUCGGAUCUGCACUUCCAG", "log2 enrichment": 0.805}
{"Strand": "CUCAAGUCCUGUGCUACACAUCGUAUGUACCGAAUCGGGCCGGCCGGGGCCGGGAAAGUAUUAUGUUACGCCGUUCGGAUCUGCACUUCC", "log2 enrichment": -1.2}
{"Strand": "UGGCCCUGGUGGCAUGCGGGGAGGAAGAGGUGGCCUCAUGGAUCGUGGUGGUCCCGGUGGAAUGUUCAGACGUGGCCGUGGUGGAGACAG", "log2 enrichment": 3.15}
{"Strand": "ACCAUGCAGGUGGGCAUCUUUGGGACGUGGGGCAAGGGGGGGAUAGGGAGGGGGGUAACACUUUGGGAACAGGUGGUCCCAGGUCGUUUC", "log2 enrichment": -1.09}
{"Strand": "GCAGGAAGUAAAAACAAAUGGAAAUGCUUCGGAUAGAAACAGGGGUGGGGGUUGCUAAGGAAAGGGUGGGAUGGGAGUGGGUAAAGAGUU", "log2 enrichment": 1.68}
{"Strand": "UCAAGUCCUGUGCUACACAUCGUAUGUACCGAAUCGGGUUUGGUUUGGUUUGGGAAAGUAUUAUGUUACGCCGUUCGGAUCUGCACUUCC", "log2 enrichment": -1.21}
{"Strand": "UGGGAGGUGGAUUUUGUUUAUUUUUUUAGCUCAGUUCCAGGGGUGGGAAUUUUUUUUUAAUAUGUGUCAUGAAUAAAGUUGUUUUUGAAA", "log2 enrichment": 2.89}
{"data": "Set 5", "target": "RNA binding protein fox-1 homolog 2, RRM domain, GST-SBP tag (RBFOX2, Homo sapiens, UniProt O43251-10, residues 100-194)", "method": "RNA Bind-n-Seq", "molecule type": "RNA", "medium": "in vitro", "tested at": "365 nM", "notes": "natural RNA segment, single round, ends assumed", "relative to": "no-protein control", "direction": "higher = stronger binding", "constant ends, left off below": "GGGAGUUCUACAGUCCGACGAUC … UGGAAUUCUCGGGUGCCAA", "Target sequence (chain)": "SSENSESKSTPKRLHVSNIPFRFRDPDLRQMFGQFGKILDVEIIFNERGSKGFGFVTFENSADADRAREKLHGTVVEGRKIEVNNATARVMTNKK"}
{"Strand": "UGAAGAGCAAUUCUCACUGGUAACUUGACAUCUCUCAAUUUCAGGAUCUUUGCCUCUCAUUAAAAGUCAUGGAAAAUAUACACAUUUAAGGUGAAUAGACACAUUAAGGU", "RBNS enrichment (R)": 0.23}
{"Strand": "UCACCCCAGAAGGAAAAGAGGGGAUAGGGAAAACAAAAGAUUAUGCAAGCCCCCAGCCCUUCCUGAAGCCCGUGCUCUGCCCAGCACUCGGAUGCUGCUCUUUUCUUGCU", "RBNS enrichment (R)": 1.22}
{"Strand": "AGACCUCAGGGUGCCCAGGUCCUGCAUCUCUCUAUUGCCCCACUUCCUGCUAUAAUCCCUGAUGAAAACCUGACGGUGAACUCACUAAUAAACAAGACUGACUCCUUCUU", "RBNS enrichment (R)": 0.56}
{"Strand": "CACGCCAUCCAGCAGCGCUAAGGUGGACAUGGGAUUCCUCCCUGCGAUGCGUGUCUUUCCCACGCAGAGAAGCCCAGUCUCUUCUCUGGAUCUGGGCCUUUGAACAACUG", "RBNS enrichment (R)": 0.553}
{"Strand": "ACUACGCACUUUAGAUAAGCCUCUUUUUAGUUCUUUCUGUUUCUCAAUAAUGGGCCAAAAAUACACCAUAGAGUUAAAGGUGCUGUCUACCAAGUAGCACACCAGUCAUG", "RBNS enrichment (R)": 0.318}
{"Strand": "GGUAGUGCACACCUUGAAUCUGAGCACUAGGAAAACAGGCAGGUGGAUUUUUGAGUUCAAGACCAGAGUGGUCUACAGAGUGAGUUCUACAACAGCCAGGGCUACAUAGA", "RBNS enrichment (R)": 0.481}
{"Strand": "GCUACAGACGAGUGACCCUUAGAUGACCUCCUCAACUGCCUGCCUUGUGUGUGCGCGCAAGGCCCCUCUCUGCACAGGGGUUCUUCGGGGGAGGGGGUAUUUGCAAAACC", "RBNS enrichment (R)": 0.671}
{"Strand": "GCGACGUUUAUUUCAUCUCUUGUUUACGAUUUCACUAGGACUCAGAAACGAGAUCGGGAAGCAGAAAUAUAGUGCAAUAGUGCAACAUCUCUGAAUCCUUUUAAUCUAGA", "RBNS enrichment (R)": 0.291}
